Results pooled from the literature.
A part holds a random share of what one study measured.

Study 1
Target: TAR DNA-binding protein 43, full length, His tag (TARDBP, Homo sapiens, UniProt Q13148, residues 1-414)
Method: RNA Bind-n-Seq
Molecule type: RNA
Sample: in vitro
Tested at: 20 nM
Notes: 6-mer, flanks averaged, single round
With: 150 mM LiCl
Relative to: input library
Reading: higher = stronger binding
For `UCCCCC`, “6-mer enrichment (R)” read 1.32.
Under “6-mer enrichment (R)”, `CCAAAA` is recorded as 0.848.
For `AGUCGU`, “6-mer enrichment (R)” read 0.937.
For `UAGGAG`, “6-mer enrichment (R)” read 1.01.

Study 2
Target: Histone acetyltransferase KAT6A, winged helix 2, GST fusion (KAT6A, Homo sapiens, UniProt Q92794, residues 85-181)
Method: protein binding microarray
Molecule type: double-stranded DNA, one strand shown
Sample: in vitro
Tested at: not given
Notes: 8-mer, flanks averaged, mean of 2 arrays, mostly near background
Relative to: not given
Reading: higher = stronger binding
Residues (chain): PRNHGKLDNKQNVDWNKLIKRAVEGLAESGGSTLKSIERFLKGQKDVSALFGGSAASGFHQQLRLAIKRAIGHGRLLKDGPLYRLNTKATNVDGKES
`CAACATTA` has an E-score of -0.159.
For `ATTGTATG`, the E-score was 0.0411.
`AGATCCCA` gave an E-score of 0.00549.
For `CAGGATGG`, the E-score was 0.0247.

Study 3
Target: Interferon regulatory factor 7, full length, phosphomimetic (IRF7, Homo sapiens, UniProt Q92985, residues 1-503, S471D/S472D/S475D/S476D/S477D/S483D/S484D/S487D)
UniProt Q92985, sequence (whole entry, unmodified, looked up): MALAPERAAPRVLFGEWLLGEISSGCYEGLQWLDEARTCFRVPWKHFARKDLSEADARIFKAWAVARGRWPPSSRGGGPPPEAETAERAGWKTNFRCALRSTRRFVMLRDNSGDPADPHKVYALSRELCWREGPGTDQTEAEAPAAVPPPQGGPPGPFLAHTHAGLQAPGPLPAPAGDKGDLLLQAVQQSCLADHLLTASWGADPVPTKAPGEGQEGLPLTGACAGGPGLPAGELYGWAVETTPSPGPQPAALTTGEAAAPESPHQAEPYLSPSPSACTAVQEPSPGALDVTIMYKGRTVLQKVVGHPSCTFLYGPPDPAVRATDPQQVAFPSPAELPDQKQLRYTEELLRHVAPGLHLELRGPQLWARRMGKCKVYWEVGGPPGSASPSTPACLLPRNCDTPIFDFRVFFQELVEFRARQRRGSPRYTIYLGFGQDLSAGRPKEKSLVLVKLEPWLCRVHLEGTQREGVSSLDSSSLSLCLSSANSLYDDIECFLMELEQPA
Method: protein-binding microarray
Molecule type: double-stranded DNA, one strand shown
Sample: in vitro
Tested at: 2200 nM top
Notes: 60-bp whole probe
With: salmon DNA 0.4 mg/ml
Relative to: random background probes
Reading: higher = stronger binding
Constant ends, left off below: GCCTAGCAC … GTCTTGATTCGCTTGACGCTGCTG
`GTAGGTATCGGGTATCGGTTAGTGCTA`: “fitted relative affinity” 0.497 z-score.
`GACGGTTTCGGTATCGAGACGTGCTAG`: “fitted relative affinity” 6.37 z-score.
`GACGATTTCGGGCATCGAGACGTGCTA` — result for “fitted relative affinity”: 0.866 z-score.
For `GATGGACTGCTTATCCTGACGTGCTAG`, “fitted relative affinity” read 0.409 z-score.
`CACGGTATCCTACTGCTGACGTGCTAG` — result for “fitted relative affinity”: 0.897 z-score.

Single results of other studies
`PhoQ, residues 284 288 289 292 302 303 TAVSDG` gave a fold induction of 4.59 (PhoP, residues 12 14 15 18 19 LWHVM (Escherichia coli, UniProt P23836); Sort-seq, refers to: YFP reporter; E. coli; PhoQ-PhoP variant library, with: 10 µM Mg2+; relative to: high Mg2+ state, higher = stronger signaling).

For quick reference, copied from above (study 2):
`AGATCCCA` gave an E-score of 0.00549.
For `ATTGTATG`, the E-score was 0.0411.
